Assay results collected from several papers.
Each numbered part is a random draw from the data of one study; scales do not carry over between parts.

Sample 1
Target: Sal-like protein 4, full length isoform B (SALL4, Homo sapiens, UniProt Q9UJQ4-2, residues 1-616)
Method: universal PBM
Molecule type: double-stranded DNA, one strand shown
Sample: in vitro
Tested at: not given
Setting: 8-mer, flanks averaged, mean of replicates
Reading: higher = stronger binding
Endpoint: E-score
AGTCTTTA: 0.0675
ATATTACC: 0.339
CCACATTA: 0.193
ACTAGACT: -0.0755
GTGATCAA: 0.0815
AGTCTACA: 0.0228
ACTTGGAT: 0.175
CCGGAAGG: -0.252
AACTCTAA: 0.201
CTGCATAC: 0.0355
GACTGTAC: -0.0106
ATCCAGAT: 0.0144
CAGGAACG: -0.206
GTATCAGA: 0.0929

Sample 2
Target: Ras GTPase-activating protein-binding protein 1, full length (G3BP1, Homo sapiens, UniProt Q13283)
UniProt Q13283, sequence (whole entry, looked up): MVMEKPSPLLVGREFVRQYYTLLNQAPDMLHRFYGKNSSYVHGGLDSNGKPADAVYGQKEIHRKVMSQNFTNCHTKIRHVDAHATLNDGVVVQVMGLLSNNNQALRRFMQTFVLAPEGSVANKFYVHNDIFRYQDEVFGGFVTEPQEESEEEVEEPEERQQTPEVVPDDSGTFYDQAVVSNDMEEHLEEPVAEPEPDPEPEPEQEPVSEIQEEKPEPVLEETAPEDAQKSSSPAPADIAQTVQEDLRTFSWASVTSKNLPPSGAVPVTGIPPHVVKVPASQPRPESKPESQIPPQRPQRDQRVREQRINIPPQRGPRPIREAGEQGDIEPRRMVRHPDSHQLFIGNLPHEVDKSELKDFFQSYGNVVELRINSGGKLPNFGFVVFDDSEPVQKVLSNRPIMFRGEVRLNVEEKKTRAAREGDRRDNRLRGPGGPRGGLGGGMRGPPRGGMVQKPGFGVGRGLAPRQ
Method: RNA Bind-n-Seq
Molecule type: RNA
Sample: in vitro
Tested at: 200 nM
Setting: whole 134-nt RNA, ends assumed
Together with: 150 mM LiCl
Relative to: input library
Reading: higher = stronger binding
Endpoint: log2 enrichment
All molecules: 7-deaza-guanosine replaces G
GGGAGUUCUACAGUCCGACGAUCUAACUUUAGAGGAGUAUCUGAUGGAUAUGGCAGUGGACGUGGAUUUGGGGAUGGCUAUAAUGGGUAUGGAGGAGGACCUGGAGGUGGCAAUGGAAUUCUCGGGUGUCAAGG: -0.132
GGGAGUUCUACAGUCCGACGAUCGCAGGAAGUAAAAACAAAUGGAAAUGCUUCGGAUAGUGGCAGGGGUGGGGGCUGCUAAGGAAAGGGUGGGAUGGGAGUGGGUAAAGAGUUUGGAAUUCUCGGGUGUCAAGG: 0.171
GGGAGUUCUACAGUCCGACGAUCUAACUUUAGAGGAGGAUCUGAUGGAUAUGACAGUGGACGUGGAUUUGGGGAUGGCUAUAAUGGGUAUGGAGGAGGACCUGGAGGUGGCAAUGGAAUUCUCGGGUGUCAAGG: 0.164
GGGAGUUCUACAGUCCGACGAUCGUCCUGUGCUACACAUCGUAUGUACCGAAUCGGGGUUUGGGGAGGGGAAAAAAAGGGGAAAGUAUUAUGUUACGCCGUUCGGAUCUGCACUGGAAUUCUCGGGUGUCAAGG: 0.0811
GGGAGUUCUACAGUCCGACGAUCUGGCCCUGGUGGCACGCGGGGAGGAAGAGGUGGCCUCAUGGAUCGUGGUGGUCCCGGUGGAAUGUUCAGAGGUGGCCGUGGUGGAGACAGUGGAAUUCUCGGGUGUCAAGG: 0.578

Sample 3
Target: Interferon regulatory factor 7, full length, phosphomimetic (IRF7, Homo sapiens, UniProt Q92985, residues 1-503, S101K/S471D/S472D/S475D/S476D/S477D/S483D/S484D/S487D)
Method: protein-binding microarray
Molecule type: double-stranded DNA, one strand shown
Sample: in vitro
Tested at: 250 nM
Setting: 60-bp whole probe
Together with: salmon DNA 0.4 mg/ml
Relative to: random background probes
Reading: higher = stronger binding
Endpoint: log fluorescence
All sequences stand within: GCCTAGCAC … GTCTTGATTCGCTTGACGCTGCTG
Target sequence (chain): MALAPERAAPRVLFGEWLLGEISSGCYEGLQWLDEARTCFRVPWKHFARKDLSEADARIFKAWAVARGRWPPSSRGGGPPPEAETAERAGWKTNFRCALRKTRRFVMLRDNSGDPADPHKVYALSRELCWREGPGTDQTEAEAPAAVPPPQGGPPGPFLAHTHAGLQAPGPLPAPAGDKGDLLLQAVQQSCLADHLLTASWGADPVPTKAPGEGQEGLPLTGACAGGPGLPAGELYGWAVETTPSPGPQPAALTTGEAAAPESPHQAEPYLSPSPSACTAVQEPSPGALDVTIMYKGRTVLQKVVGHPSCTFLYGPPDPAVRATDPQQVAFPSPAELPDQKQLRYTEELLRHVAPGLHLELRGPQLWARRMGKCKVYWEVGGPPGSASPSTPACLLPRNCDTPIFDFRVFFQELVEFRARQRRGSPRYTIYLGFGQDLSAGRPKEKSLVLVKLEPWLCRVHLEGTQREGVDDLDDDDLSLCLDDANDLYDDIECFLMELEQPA
TTTGGTATCGGTATCGGTTAGTGCTAG: 3.29 z-score
TTTTTTATCAATCATTTTCGTGTGCTA: 1.05 z-score
TTAGGATTGCTTATCCTTTAGTGCTAG: -0.367 z-score
AACGGTCTCGGTATCGGGACGTGCTAG: 2.38 z-score
TTAGGTTTCGGGAATCGGTTAGTGCTA: 3.64 z-score
CACGATTTCGGGTTTCGAGACGTGCTA: 4.49 z-score
TCGGGTCTCCCTTGAGGTTTGTGCTAG: 0.376 z-score
TTAAGTTTCCTTCTCCTTTAGTGCTAG: 2.99 z-score

Mixed results
PhoQ, residues 284 288 289 292 302 303 GLASVI  fold induction (PhoP, residues 12 14 15 18 19 HEGLL (Escherichia coli, UniProt P23836); Sort-seq, measured: YFP reporter; E. coli; PhoQ-PhoP variant library, together with: 10 µM Mg2+; relative to: high Mg2+ state, higher = stronger signaling): 19.1

A few entries again (sample 3):
TTTGGTATCGGTATCGGTTAGTGCTAG: 3.29 z-score
TTAGGTTTCGGGAATCGGTTAGTGCTA: 3.64 z-score
TCGGGTCTCCCTTGAGGTTTGTGCTAG: 0.376 z-score
